# Experimental data pooled from the literature.
# Parts stem from different laboratories: compare values within a part only. Positions count from the first letter of the parent shown.

# Study 1
# Target: Interferon regulatory factor 5, full length, phosphomimetic (IRF5, Homo sapiens, UniProt Q13568-2, residues 1-514, K96S/S451D/S453D/S456D/S462D)
# Method: protein-binding microarray
# Form: double-stranded DNA, one strand shown
# Sample: in vitro
# Tested at: 250 nM
# Setting: 60-bp whole probe
# Added: salmon DNA 0.4 mg/ml
# Baseline: random background probes
# Direction: higher = stronger binding
# Shared flanks, not repeated: GCCTAGCAC … GTCTTGATTCGCTTGACGCTGCTG
Sequence,log fluorescence [z-score]
TTTGGTTTCGGGTATCGGTTAGTGCTA,9.92
TTAGATTTCCGTCTCGATTAGTGCTAG,1.2
GAGTTTCCATTTTCTGAATGCGTGCTA,2.68
CCTCCTCTCTCTTTCCACTTGTGCTAG,0.565
GACGTTTTCCTTATCCTGACGTGCTAG,0.802
TTAGAGTCCAGTTTCGATTAGTGCTAG,9.41
TTAGGACTGGGGGCTGGGTTAGTGCTA,0.724
TCAACACTAATTTTCAAACTGTGCTAG,0.686
TTAGGACTGCTTCTCCGTTAGTGCTAG,-0.068
TCATGTCCCTGTTTCTAACTGTGCTAG,0.553
TCATAGTTGTGTCTTGCACTGTGCTAG,0.0652
GACGGTTTCGACTTACGGGACGTGCTA,6.22
GAAGGTTTCGACTATCGGGACGTGCTA,6.96
GACGGACTGAGACTGGGGACGTGCTAG,-0.651
GTCGGACTGCTTCTCCTGACGTGCTAG,-0.238
TCACTTCTAATATTCATACTGTGCTAG,0.952
TTAGATATCGGGTATCGATTCGTGCTA,4.86
GACGGCTTCGGGTTTCGGGACGTGCTA,1.72
CTTGAACCTGGGAGGTGGAGGTGCTAG,-0.552
ATAGGTTTCGGGACTGGGTTAGTGCTA,5.35
TTAGATTTCAGTTTCTATTAGTGCTAG,5.97
TTAGGACTGGGTTTCGGGTAGTGCTAG,4.49
TTCAATTCCTGAAATCTCTTTGTGCTA,0.872
GACGATTTCAGTTCCAAGACGTGCTAG,1.31
TTAGGTCTCCGTCTCGGTTAGTGCTAG,0.307

# Study 2
# Target: CCND2, cyclin fold, Cln2 fusion (human)
# Method: yeast growth competition, sequencing
# Sample: yeast
# Setting: weak parent motif
# Baseline: not given
# Direction: higher = stronger binding
# Parent: DTL docking peptide (human); PSSMRKICTYFHR; partner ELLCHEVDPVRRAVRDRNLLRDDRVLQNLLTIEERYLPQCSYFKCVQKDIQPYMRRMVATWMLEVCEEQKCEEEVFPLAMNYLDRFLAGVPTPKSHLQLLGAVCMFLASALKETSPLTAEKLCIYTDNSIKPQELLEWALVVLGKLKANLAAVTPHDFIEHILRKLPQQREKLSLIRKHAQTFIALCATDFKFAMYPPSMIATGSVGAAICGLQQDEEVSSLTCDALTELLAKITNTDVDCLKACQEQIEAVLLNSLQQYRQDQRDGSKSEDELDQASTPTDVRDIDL
Substitution,normalised enrichment score
Y10A,-0.684
I7A,-0.374
R5A,-0.487
F11A,0.0291
H12A,-0.188
K6A,-0.454

# Study 3
# Target: RING finger protein unkempt homolog, zinc fingers 1-6, GST-SBP tag (UNK, Homo sapiens, UniProt Q9C0B0, residues 30-357)
# Method: RNA Bind-n-Seq
# Form: RNA
# Sample: in vitro
# Tested at: not given
# Setting: RNA with constant flanks, human and mouse sites, ends assumed
# Baseline: input RNA pool
# Direction: higher = stronger binding
# Shared flanks, not repeated: GGGAGUUCUACAGUCCGACGAUC … CAACAGAGGAUUGAGCAUCA
# Construct (chain): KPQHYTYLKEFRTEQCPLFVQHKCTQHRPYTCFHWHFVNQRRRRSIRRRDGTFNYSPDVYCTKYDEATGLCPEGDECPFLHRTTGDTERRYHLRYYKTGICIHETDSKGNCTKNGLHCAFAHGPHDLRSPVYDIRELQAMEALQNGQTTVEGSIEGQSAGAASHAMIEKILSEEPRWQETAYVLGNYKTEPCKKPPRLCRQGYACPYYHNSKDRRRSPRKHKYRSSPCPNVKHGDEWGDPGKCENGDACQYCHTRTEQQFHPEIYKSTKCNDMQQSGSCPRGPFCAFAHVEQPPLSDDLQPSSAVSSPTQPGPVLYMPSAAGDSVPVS
Sequence,bound/input enrichment [ratio]
AAGAAUAUUCGAUUUCCACUGAUGACACCACAGGAUCUCAUCAAUUACGUGCAGACAGUAGAUUUCAUGAGAACAGACAAUACCUGCGUGAAUUUGCUUUUGGAAGCUAGCAAUUACCAA,0.295
UCCACAACAGGUUCCUGACGGAGACUUCGCCCUUCAUGUGGUCCAACCUGGGCAUUGGCCUAGCUAUCUCCCUGUCUGUGGUUGGGGCAGCCUGGGGCAUCUAUAUUACCGGCUCCUCCA,0.0994
CAGAAACUUUGUGAAAUUGAAAGGAUACAUUUCUUUCUGAGUAAGAAAAAACCAGAUGAACUUAGAAAUCUACACAAACUGCUUUACAACAGGCCGGGCACAGUGUCCUCGUUGAAGAAG,0.22
CAUAAGAGAUGUUCUCGUAGCUCUGCGUUGUGUGAAAUGUCCAUCUUAGUUUUGUUAAAAAAAAAAAAAAAAAAAGGAAACAGCCUCACUUUUUUGUGCUCCCUCAGAAUUGCUUGCUAU,2.81
CUGCGGCUUUUGGAACAGAAAGUUGAGCUUGCGCAGCUGCAAGAAGAAUGGAAUGAACAUAAUGCCAAAAUAAUUAAAUAUAUAAGAACUAAGACAAAGCCCCAUUUGUUUUAUAUUCCU,0.793
GGAAGCACAUUAAUGGAAAUAGAUGGCGAUAAAGGCAAACAAGGCGGUCCCACCUACUACAUAGAUACUAAUGCUCUGCGUGUUCCGAGGGAGAAUAUGGAGGCCAUUUCACCUCUAAAA,0.239
AGUGGACCAGGAGCAGCUUGGAGUUUUAACUUUCAUUUUACAAAGAACAACAUGUUUGAAUGUUUCAGCAGGCAAGUUAUAACUGGCAUCUACUUCUUGUUCUUCUAGAACACCGAAAAU,0.216
UUCACCACUCCUGGGUGCAUGAUUGAGGGUGAAGCAUCCACCAGCACUUCAAGGGGUCCAUAGUAUUUUUUUUUUUGCUGCCUCAAAGUCCCCAAAGCCUUCGAGCAGAAGUGGCAGUAG,67.8
GCCCUGACAGUGGGCGGGAAAACCGUGUCACGCUUCUAUAAACCUGACUCUAGAUUGGAAUUUUACCGAGAUCUUGGACUGCCACCAAAACAGAUACAUAAAAUCUUUCAUGUGACAGAU,0.303
CUGGAUCAGUAUGGCCAAUGUGUGGCAGCCAAGCCAGAGUCGUGGCAUCGAGAUUGUCACCACCUUAAGAUGAGCAUUGCUCGCUGCACGUCCUCCCACCCGAUCAUCCGCCAGAUCCGC,0.0713
GGUCACACCAGGCCUACAAGGGCAGAAGUUAAAUAAAUUGAACUAGGGCACUAAACUGAAUAGUUGACAGUGUCAUUUUAUGUUGGAUUAUUAAUUACUGUUUUUCUUCCUGCUAUCUGU,0.195

# Study 4
# Target: Prothrombin, mature alpha-thrombin (F2, Homo sapiens, UniProt P00734)
# Method: aptamer microarray, sandwich
# Form: DNA with 2'F-ANA
# Sample: in vitro
# Tested at: 200 nM
# Setting: whole 15-mer aptamer, many near background
# Added: Cy3 exosite-II aptamer, 400 nM
# Direction: higher = stronger binding
# Sequence: GGTTGGTGTGGTTGG
Modification,mean fluorescence intensity
2'F-ANA at 2 4 7 11 13 14,105 a.u.
2'F-ANA at 3 5 6 7 8 9 10 13,63.1 a.u.
2'F-ANA at 2 6 7 8 9 11 12,590 a.u.
2'F-ANA at 4 9 10 11 12 15,92.1 a.u.
2'F-ANA at 3 5 7 10 11 14 15,63.6 a.u.
2'F-ANA at 1 6 7 8 9 12 15,392 a.u.
2'F-ANA at 1 3 4 6 9 10 14 15,54.8 a.u.
2'F-ANA at 3 6 7 10 11 12 13 14,370 a.u.
2'F-ANA at 1 4 5 6 7 9 10 11 12,71.9 a.u.
2'F-ANA at 2 6 9 12 13 14 15,143 a.u.
2'F-ANA at 1 4 5 6 7 8 9 11 12 13 14,49 a.u.
2'F-ANA at 2 3 4 5 6 9 12 14,68.6 a.u.
2'F-ANA at 1 6 7 11 14 15,67.8 a.u.
2'F-ANA at 3 4 5 7 9 11 13,61.6 a.u.
2'F-ANA at 6 7 8 11 12 14 15,247 a.u.
2'F-ANA at 1 4 5 6 8 10 11 13 14 15,58.1 a.u.
2'F-ANA at 1 3 4 5 9 10 12 13 15,46.5 a.u.
2'F-ANA at 4 6 7 10 11 12 14,59.4 a.u.
2'F-ANA at 2 4 6 8 9 10 11 13,64.7 a.u.
2'F-ANA at 1 2 3 4 6 7 8 9 11 13 14,150 a.u.
2'F-ANA at 7 9 11 14,183 a.u.
2'F-ANA at 2 3 4 5 7 8 9 10 11 12 13 14 15,95.8 a.u.
2'F-ANA at 2 4 5 6 9 10 12 13,61 a.u.

# Single results of other studies
Substance,target,test,system,conditions,how to read,measurement,result
"PhoQ, residues 284 288 289 292 302 303 SVTLVV","PhoP, residues 12 14 15 18 19 VQALL (Escherichia coli, UniProt P23836)","Sort-seq, item: YFP reporter",E. coli,"PhoQ-PhoP variant library, added: 10 µM Mg2+","baseline: high Mg2+ state, higher = stronger signaling",fold induction,7.8

# Some of these lines once more (study 3):
Sequence,bound/input enrichment [ratio]
CUGCGGCUUUUGGAACAGAAAGUUGAGCUUGCGCAGCUGCAAGAAGAAUGGAAUGAACAUAAUGCCAAAAUAAUUAAAUAUAUAAGAACUAAGACAAAGCCCCAUUUGUUUUAUAUUCCU,0.793
GGUCACACCAGGCCUACAAGGGCAGAAGUUAAAUAAAUUGAACUAGGGCACUAAACUGAAUAGUUGACAGUGUCAUUUUAUGUUGGAUUAUUAAUUACUGUUUUUCUUCCUGCUAUCUGU,0.195
CAUAAGAGAUGUUCUCGUAGCUCUGCGUUGUGUGAAAUGUCCAUCUUAGUUUUGUUAAAAAAAAAAAAAAAAAAAGGAAACAGCCUCACUUUUUUGUGCUCCCUCAGAAUUGCUUGCUAU,2.81
GGAAGCACAUUAAUGGAAAUAGAUGGCGAUAAAGGCAAACAAGGCGGUCCCACCUACUACAUAGAUACUAAUGCUCUGCGUGUUCCGAGGGAGAAUAUGGAGGCCAUUUCACCUCUAAAA,0.239
